Assay results of several laboratories.
Each line is one published result; not all experiments were run side by side. Values joined by “and” are separate records of one study, mostly repeats; a detail may differ. Numbers after ± are the reported error. In brackets after ≈: the same amount, converted by molar mass.

CC(C)C[C@H](NC(=O)[C@@H](CCCCNC(=O)[C@@H](Cc1ccccc1)NC(=O)CCCCCCCNC(=O)CN1CCN(CC(=O)O)CCN(CC(=O)O)CCN(CC(=O)O)CC1)NC(=O)[C@H](Cc1ccc(O)cc1)NC(=O)[C@H](CO)NC(=O)[C@H](Cc1c[nH]c2ccccc12)NC(=O)[C@H](Cc1c[nH]cn1)NC(=O)[C@@H]1CCC(=O)N1)C(=O)N[C@@H](CCCNC(=N)N)C(=O)N1CCC[C@H]1C(=O)NCC(N)=O [indium-111 labelled] — tissue uptake (male athymic nude mice, DU-145 prostate cancer xenograft, kidney; intravenous, 0.037 MBq, 0.5 h): 8.01 ± 0.57 %ID/g
COc1ccc2c(c1)CN(C(=O)CCN1CCC(Cc3ccccc3)CC1)CC[S+]2[O-] (centres unmarked) — fu (dog plasma; 75 ng/mL): 0.322
CC(C)C[C@H](NC(=O)[C@H](CCCN)NC(=O)CNC(=O)[C@@H](NC(=O)[C@H](C)NC(=O)[C@@H]1CSCSC[C@H](NC(=O)CC[C@H](N)C(=O)O)C(=O)N[C@@H](CC(N)=O)C(=O)N[C@@H]([C@@H](C)O)C(=O)N[C@@H](C)C(=O)N[C@@H]([C@@H](C)O)C(=O)N1)[C@@H](C)O)C(=O)N[C@@H](C)C(=O)N[C@@H](CCC(=O)O)C(=O)N[C@@](C)(Cc1ccccc1)C(=O)N[C@@H](CC(C)C)C(=O)N[C@H](C(=O)N[C@@H](CCCNC(=N)N)C(=O)N[C@@H](CO)C(=O)N[C@@H](CO)C(=O)N[C@@H](CC(N)=O)C(=O)N(C)[C@@H](CC(N)=O)C(=O)N[C@@H](Cc1ccccc1)C(=O)NCC(=O)N1CCC[C@H]1C(=O)N[C@@H](CCCCNC(=O)CC[C@H](NC(=O)CC[C@H](NC(=O)CCCCCCCCCCCCCCCCCCC(=O)O)C(=O)O)C(=O)O)C(=O)N[C@@H](CC(C)C)C(=O)N1CCC[C@H]1C(=O)N1CCC[C@H]1C(=O)N[C@H](C(=O)N[C@@H](CCC(=O)O)C(=O)N[C@H](C(=O)NCC(=O)N[C@@H](CO)C(=O)N[C@@H](CC(N)=O)C(=O)N[C@H](C(=O)N[C@@H](Cc1ccc(O)cc1)C(N)=O)[C@@H](C)O)C(C)C)[C@@H](C)O)C(C)C — AUC(0-tlast) (healthy humans, plasma; subcutaneous, dose not given): 59700 ng·h/mL
CC(C)(O)c1ncc([S@](N)(=O)=NC(=O)Nc2c3c(cc4c2CCC4)CCC3)s1 — freeze-thaw stability (human urine; -20 °C or below): 3 cycles
CC(C)(C)NCC(SS(=O)(=O)O)c1ccccc1 (centres unmarked) — body weight (Swiss Webster mice, Schistosoma mansoni-infected; 100 mg/kg x 4 doses from day 42 post-infection, perfusion day 56 post-infection): 33 g
CC[C@H](C)[C@H](NC(=O)[C@H](CC(N)=O)NC(=O)[C@@H](N)CCSC)C(=O)N[C@@H](CCSC)C(=O)N[C@@H](CC(=O)O)C(=O)N[C@@H](Cc1ccccc1)C(=O)N[C@@H](CC(N)=O)C(=O)N[C@H](C(=O)N[C@@H](CCCCN)C(=O)N[C@@H](CCCCN)C(=O)N[C@@H](CC(C)C)C(=O)N[C@@H](C)C(=O)N[C@@H](C)C(=O)N[C@@H](CC(=O)O)C(=O)N[C@@H](C)C(=O)NCC(=O)N[C@H](C(=O)N[C@@H](Cc1c[nH]c2ccccc12)C(=O)N[C@@H](CC(C)C)C(=O)N[C@@H](CO)C(=O)N[C@@H](CCCNC(=N)N)C(=O)N[C@@H](C)C(=O)N[C@H](C(=O)N[C@@H](CCC(N)=O)C(=O)N[C@@H](Cc1ccccc1)C(=O)N[C@H](C(=O)N[C@@H](CCC(=O)O)C(=O)N[C@@H](CCC(=O)O)C(=O)N[C@@H](CCCCN)C(=O)N[C@@H](CC(C)C)C(=O)NCC(=O)N[C@@H](CCC(N)=O)C(=O)N[C@@H](C)C(N)=O)[C@@H](C)O)C(C)C)[C@@H](C)O)C(C)C — fractional helicity (circular dichroism; ~60% TFE): 80.9%
CC(C)[C@H](NC(=O)[C@H](Cc1c[nH]c2ccccc12)NC(=O)[C@H](CCCNC(=N)N)NC(=O)[C@H](CCCNC(=N)N)NC(=O)[C@@H](NC(=O)[C@@H](NC(=O)[C@H](CCCNC(=N)N)NC(=O)[C@@H](NC(=O)[C@@H](NC(=O)[C@H](CCCNC(=N)N)NC(=O)[C@H](CCCNC(=N)N)NC(=O)[C@@H](NC(=O)[C@H](Cc1c[nH]c2ccccc12)NC(=O)[C@H](CCCNC(=N)N)NC(=O)[C@H](CCCNC(=N)N)NC(=O)[C@@H](NC(=O)[C@H](CCCNC(=N)N)NC(=O)[C@H](CCCNC(=N)N)NC(=O)[C@@H](NC(=O)[C@H](Cc1c[nH]c2ccccc12)NC(=O)[C@H](CCCNC(=N)N)NC(=O)[C@@H](N)CCCNC(=N)N)C(C)C)C(C)C)C(C)C)C(C)C)C(C)C)C(C)C)C(C)C)C(=O)N[C@@H](CCCNC(=N)N)C(=O)N[C@@H](CCCNC(=N)N)C(=O)O — chloride (CD1 mouse, plasma; intravenous, 15 mg/kg, 24 h, [14C]-labelled compound): 98.7 mEq/L
CN1CCC[C@]1(C)/C=C/S(=O)(=O)NC(=O)Nc1c2c(cc3c1CCC3)CCC2 — subjects with adverse event (measured: alanine aminotransferase increased, probably related; human; oral, 12.5 mg twice daily, 14 days, multiple ascending dose): 0%
Cc1ccc(OCC(=O)N(Cc2cccs2)c2ccn[nH]2)cc1 — remaining compound (dog plasma; 750 ng/mL, 6 h, 37 °C, unit not given; baseline: time zero): 112
CC(=O)N([O-])CCCCCNC(=O)CCC(=O)N([O-])CCCCCNC(=O)CCC(=O)N([O-])CCCCCN.[89Zr+4] — intact complex (radio-TLC; aqueous buffer; 1 d, pH 5, 37 °C, 89Zr-labelled complex, with: DTPA 100-fold excess): 99.9 ± 0.1%
C/C(N)=N/C(=N\S(=O)(=O)c1ccc(C(F)(F)F)cc1)N1C[C@H](c2ccccc2)C(c2ccc(Cl)cc2)=N1 — AUC(0-inf) (Beagle dog, plasma; oral, 24 mg/kg): 28400 ng·h/mL
O=c1c2ccccc2[se]n1CCCCCCn1[se]c2ccccc2c1=O — solubility (shake-flask, RP-HPLC; Tween 20; 24 h, 25 °C): 1060 ± 20 µg/mL (≈ 2220 µM)
C=CC(=O)Nc1cc(Nc2nccc(-c3cn(C)c4ccccc34)n2)c(OC)cc1N(C)CCNC — recovery (storage stability; human plasma; 10 d, on ice, MQC level): 64.4%
CCc1cnc(NC(=O)c2cc(S(=O)(=O)N3CCOCC3)ccc2N(C)C2CCCC2)s1 — mean corpuscular haemoglobin (mouse; 10 mg/kg, 3 doses): 16.3 pg
OC1(C(F)(F)F)CCN(c2nc(Nc3ccnc(C(F)(F)F)c3)nc(-c3cccc(C(F)(F)F)n3)n2)C1 (centres unmarked) — AUC(0-inf) (Sprague-Dawley rat, both sexes, plasma; oral gavage, 5 mg/kg, day 1): 9780 ± 1200 ng·h/mL
CCCCN1C(=O)c2cccc3c(NCCCCCCCCCCN4CCOCC4)ccc(c23)C1=O — molar extinction coefficient (ethyl acetate): 13200 M⁻¹ cm⁻¹
CN(O)C(=O)CCC(=O)NCCCN(CCCCN(CCCNC(=O)CCC(=O)N(C)O)C(=O)CCC(=O)N(C)O)C(=O)CCC(=O)N(C)O.[89Zr] — intact complex (radio-TLC; aqueous buffer; 7 d, pH 8.5, 37 °C, 89Zr-labelled complex, with: DTPA 100-fold excess): 97 ± 3.5%
Cc1c(-c2ccc(N3CCc4cccc(C(=O)Nc5nc6ccccc6s5)c4C3)nc2C(=O)O)cnn1CC12CC3CC(CC(C3)C1)C2 — Cmax (Sprague-Dawley rat, male, anaesthetised, plasma; intravenous step infusion, 100 mg/kg, 85 min): 332000 ng/mL
CNC(=O)C1CCCN(C(=O)C2CC3CCC2N3C(=O)[C@@H]2C[C@@H](O)CN2C(=O)NCc2cccc(Cl)c2F)C1 (mixture of isomers) — AUC(0-inf) (Sprague-Dawley rat, plasma; oral, 8 mg/kg): 8.47 ng·h/mL
Cc1cc(-c2ccc(C(=O)[C@@H]3CCCC[C@H]3C(=O)Nc3cnn4c3C(=O)NCC4)cc2)[nH]n1 — radioactivity recovery per interval (human, faeces; oral, 200 mg, 168-192 h; baseline: dose): 0.03% and 0.05% and 0.04% and 2.15% and 0.09%
O=C([O-])CN1CCN(CC(=O)O)CCN(CC(=O)[O-])CCN(CC(=O)O)CC1.[64Cu+2] — blood distribution half-life (dynamic micro-PET imaging; rat, chronic myocardial infarction, blood; intravenous): 2.5 ± 0.4 min
CC[C@H](C)[C@@H](C(=O)N[C@@H](CC(C)C)C(=O)N[C@@H](CO)C(=O)N[C@@H](CO)C(=O)N[C@H](C(=O)N[C@@H](CCC(=O)O)C(=O)N[C@H](C(=O)NCC(=O)N[C@@H](CO)C(=O)N[C@@H](CC(N)=O)C(=O)N[C@H](C(=O)N1C[C@H](O)C[C@H]1C(N)=O)[C@@H](C)O)C(C)C)[C@@H](C)O)N(C)C(=O)[C@H](C)NC(=O)CN(C)C(=O)[C@H](Cc1ccccc1)NC(=O)[C@H](CO)NC(=O)[C@H](CO)NC(=O)[C@H](CCCNC(=N)N)NC(=O)[C@H](CCC(N)=O)NC(=O)[C@H](CC(C)C)NC(=O)[C@H](Cc1ccccc1)NC(=O)[C@H](CCCC(=O)O)NC(=O)[C@H](C)NC(=O)[C@H](CC(C)C)NC(=O)[C@H](CCCNC(=N)N)NC(=O)[C@H](CCC(=O)O)NC(=O)[C@@H](NC(=O)[C@H](C)NC(=O)[C@@H]1CCCCNC(=O)C[C@H](NC(=O)[C@H](CCCNC(=N)N)NC(=O)CC[C@H](NC(=O)CCCCCCCCCCCCCCCCCCC(=O)O)C(=O)O)C(=O)NCC(=O)N[C@@H]([C@@H](C)O)C(=O)N[C@@H](C)C(=O)N[C@@H]([C@@H](C)O)C(=O)N1)[C@@H](C)O — chemical degradation (RP-UPLC; formulation, histidine buffer, mannitol, NaCl; 1 weeks, pH 6.1, 40 °C): ≤ 3%
C=C[C@]1(C)C[C@@H](OC(=O)CSc2ccc(NC(=O)c3ccco3)cc2)[C@]2(C)[C@H](C)CC[C@]3(CCC(=O)[C@H]32)[C@@H](C)[C@@H]1O — peripheral volume (V2/F) (M. gallisepticum-infected chickens, plasma; intramuscular, 80 mg/kg single dose): 3.11 L/kg and 3.12 L/kg
CC[C@H](C)[C@@H]1NC(=O)[C@H](Cc2ccc(O)cc2)NC(=O)CCCSC[C@@H](C(=O)N(CC(=O)N[C@@H](CC(C)C)C(=O)NCC(N)=O)Cc2ccc(F)cc2)NC(=O)[C@H](CC(N)=O)NC(=O)[C@H](CCC(N)=O)NC1=O — AUC(0-t) (healthy human, plasma; intranasal, 200 µg every 3 h, after first dose): 0.085 ng·h/mL
CCC(C(=O)Nc1ccc(C(N)=O)c(F)c1)n1cc(OC)c(-c2cc(Cl)ccc2-n2cc(C(F)(F)F)nn2)cc1=O (centres unmarked) — drug-related adverse events (healthy male humans; 50 mg, with: omeprazole): 0%
O=C(Nc1cnccc1-c1ccc([18F])nc1)c1ccnc(NC(=O)C2CC2)c1 — SUV (mice, transgenic, GSK-3β, early-stage, pancreas; intravenous, dose not given, 120 min, with: tariquidar 15 mg/kg i.v. pre-dose): 0.246
C=C(NC(=O)c1csc(-c2nc3c(cc2O)-c2nc(cs2)C(=O)NC(C(C)O)C(=O)NC(=C(C)OC)c2nc(cs2)C(=O)NC2c4nc(cs4)C(=O)NC(COC(=O)c4c5c6c(cccc6n4O)COC(=O)C(OC4CC(C)(O)C(N(C)C)C(C)O4)C2OC5)c2nc-3cs2)n1)C(N)=O (centres unmarked) — half-life (ICR mice, Streptococcus pneumoniae ATCC 49169 infected, immunocompromised, blood; intravenous, 8 mg/kg/day three times daily): 2.22 h
COCC1CN(C2CCN(c3cc(OC)c(Nc4ncc(Br)c(Nc5ccc6c(c5P(C)(C)=O)OCCO6)n4)cc3C)CC2)C1 — Cmin (EGFR-mutant NSCLC patients, plasma; oral, 10 mg multiple doses, geometric mean): 15.4 ng/mL
CCC(=O)N(C)c1ccc(Cl)c(Cl)c1 — plasma concentration (female C57BL/6 mice; intravenous, 2 mg/kg, 0.5 h): 148 ng/mL
Cc1cc(C(=O)N[C@@H](CC(=O)NC(C)(C)C)C(=O)NCCNC(=O)c2cccc(-c3cc[nH]n3)c2)no1 — mean residence time (mouse, plasma; intravenous, 0.1 mg/kg): 0.3 h
CCCCN1C(=O)c2cccc3c(NCCCCCN4CCOCC4)ccc(c23)C1=O — molar extinction coefficient (methanol): 5560 M⁻¹ cm⁻¹
COc1ccc2c(c1)O[B-]1(c3ccccc3)OC(=O)C(c3ccccc3)=N[N+]1=C2 (centres unmarked) — molar absorption coefficient (toluene): 22000 M⁻¹ cm⁻¹
CCCCN1C(=O)c2cccc3c(NCCCCCCCCN4CCOCC4)ccc(c23)C1=O — molar extinction coefficient (dichloromethane): 10200 M⁻¹ cm⁻¹
COc1cccc(OC)c1-c1cc(C(=O)NC2(C(=O)O)C3CC4CC(C3)CC2C4)nn1-c1ccc(C(=O)N(C)CCCN(C)CCCN(C)C(=O)[C@H](CCCCNC(=O)[C@H](CC(C)C)NC(=O)C2OC2C(=O)O)NC(=O)CN2CCN(CC(=O)[O-])CCN(CC(=O)[O-])CCN(CC(=O)[O-])CC2)cc1C(C)C.[177Lu+3] (mixture of isomers) — tumour-to-brain ratio (mouse, HT-29 xenograft; 4 h post injection, biodistribution; baseline: tumour over brain uptake): 45.2
CCCCN1C(=O)c2cccc3c(NCCN4CCOCC4)ccc(c23)C1=O — fluorescence lifetime (dioxane): 9.7 ns
C=CC(=O)Nc1cc(Nc2nccc(-c3c[nH]c4ccccc34)n2)c(OC)cc1N(C)CCN(C)C — recovery (storage stability; human plasma; 5 h, on ice, high QC level): 91.2%
CCCC[C@H](OC(C)=O)c1ccccc1C(=O)O — MRT(0-inf) (Sprague-Dawley rat, both sexes, whole blood; intravenous, 5 mg/kg, day 7): 4.3 ± 1.2 h
CCCCN1C(=O)c2cccc3c(NCCCCN4CCOCC4)ccc(c23)C1=O — molar extinction coefficient (ethyl acetate): 8600 M⁻¹ cm⁻¹
O=C(Nc1cnccc1-c1ccc([18F])cc1)c1ccnc(NC(=O)C2CC2)c1 — mean SUV (ex vivo gamma counting; FVB/NJ mice, both sexes, brain stem; intravenous, 120 min): 0.06
CCCCN1C(=O)c2cccc3c(NCCCCCCN4CCOCC4)ccc(c23)C1=O — molar extinction coefficient (ethyl acetate): 12300 M⁻¹ cm⁻¹
C=Cc1ccccc1[B-]12OC(=O)C(c3ccccc3)=N[N+]1=C(CC)c1ccc(N(CC)CC)cc1O2 (centres unmarked) — molar absorption coefficient (toluene): 54000 M⁻¹ cm⁻¹
